Experimental data of several laboratories.
Lines come from different studies, so protocols differ. Values joined by “and” are separate records of one study, mostly repeats; a detail may differ. ± marks the error that the study gave.
Oprm1: Mu-type opioid receptor (Oprm1, Rattus norvegicus, UniProt P33535)
UniProt P33535, sequence (whole entry, looked up): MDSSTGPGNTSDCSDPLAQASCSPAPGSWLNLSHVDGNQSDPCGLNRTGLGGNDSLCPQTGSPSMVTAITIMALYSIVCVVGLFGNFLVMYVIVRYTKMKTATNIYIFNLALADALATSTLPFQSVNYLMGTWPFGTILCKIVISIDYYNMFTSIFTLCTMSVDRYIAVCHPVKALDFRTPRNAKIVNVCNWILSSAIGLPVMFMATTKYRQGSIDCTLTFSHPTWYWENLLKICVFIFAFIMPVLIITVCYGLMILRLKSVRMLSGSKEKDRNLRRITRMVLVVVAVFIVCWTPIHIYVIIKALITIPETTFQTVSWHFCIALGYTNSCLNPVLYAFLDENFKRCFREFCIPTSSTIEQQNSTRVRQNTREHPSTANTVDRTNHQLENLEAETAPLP
Uncharacterized hydrolase SAUSA300_2518: Uncharacterized hydrolase SAUSA300_2518 (Staphylococcus aureus, UniProt Q2FDS6)
UniProt Q2FDS6, sequence (whole entry, looked up): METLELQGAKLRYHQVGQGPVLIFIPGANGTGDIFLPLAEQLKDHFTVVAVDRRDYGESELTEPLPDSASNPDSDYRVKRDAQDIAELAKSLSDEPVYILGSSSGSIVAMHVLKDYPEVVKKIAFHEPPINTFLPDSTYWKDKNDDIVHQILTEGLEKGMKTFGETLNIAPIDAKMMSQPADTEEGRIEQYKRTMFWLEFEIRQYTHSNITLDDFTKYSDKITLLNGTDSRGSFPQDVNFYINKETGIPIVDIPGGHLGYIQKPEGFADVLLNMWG
lasR: Transcriptional activator protein LasR (lasR, Pseudomonas aeruginosa, UniProt P25084)
UniProt P25084, sequence (whole entry, looked up): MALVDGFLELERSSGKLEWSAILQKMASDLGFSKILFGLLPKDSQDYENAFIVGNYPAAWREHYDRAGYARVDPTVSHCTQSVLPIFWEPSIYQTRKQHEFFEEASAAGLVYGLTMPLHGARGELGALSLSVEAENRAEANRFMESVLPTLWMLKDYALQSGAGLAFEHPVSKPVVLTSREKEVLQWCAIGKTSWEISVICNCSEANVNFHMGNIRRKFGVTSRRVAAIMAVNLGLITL
sdiA: Regulatory protein SdiA (sdiA, Escherichia coli, UniProt P07026)
UniProt P07026, sequence (whole entry, looked up): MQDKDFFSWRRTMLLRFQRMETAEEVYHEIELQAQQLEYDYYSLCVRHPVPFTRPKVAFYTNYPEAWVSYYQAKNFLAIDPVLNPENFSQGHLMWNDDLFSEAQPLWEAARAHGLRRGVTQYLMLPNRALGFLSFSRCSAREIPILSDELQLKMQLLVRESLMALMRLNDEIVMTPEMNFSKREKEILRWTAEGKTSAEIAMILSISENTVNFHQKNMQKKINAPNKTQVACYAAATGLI
KEAP1: Kelch-like ECH-associated protein 1 (KEAP1, Homo sapiens, UniProt Q14145)
UniProt A5GZW8, sequence (whole entry, looked up): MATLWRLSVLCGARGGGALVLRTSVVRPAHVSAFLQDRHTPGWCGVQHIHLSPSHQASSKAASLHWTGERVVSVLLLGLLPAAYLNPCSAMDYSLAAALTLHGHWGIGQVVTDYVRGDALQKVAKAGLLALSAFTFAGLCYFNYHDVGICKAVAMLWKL
UniProt Q14145, sequence (whole entry, looked up): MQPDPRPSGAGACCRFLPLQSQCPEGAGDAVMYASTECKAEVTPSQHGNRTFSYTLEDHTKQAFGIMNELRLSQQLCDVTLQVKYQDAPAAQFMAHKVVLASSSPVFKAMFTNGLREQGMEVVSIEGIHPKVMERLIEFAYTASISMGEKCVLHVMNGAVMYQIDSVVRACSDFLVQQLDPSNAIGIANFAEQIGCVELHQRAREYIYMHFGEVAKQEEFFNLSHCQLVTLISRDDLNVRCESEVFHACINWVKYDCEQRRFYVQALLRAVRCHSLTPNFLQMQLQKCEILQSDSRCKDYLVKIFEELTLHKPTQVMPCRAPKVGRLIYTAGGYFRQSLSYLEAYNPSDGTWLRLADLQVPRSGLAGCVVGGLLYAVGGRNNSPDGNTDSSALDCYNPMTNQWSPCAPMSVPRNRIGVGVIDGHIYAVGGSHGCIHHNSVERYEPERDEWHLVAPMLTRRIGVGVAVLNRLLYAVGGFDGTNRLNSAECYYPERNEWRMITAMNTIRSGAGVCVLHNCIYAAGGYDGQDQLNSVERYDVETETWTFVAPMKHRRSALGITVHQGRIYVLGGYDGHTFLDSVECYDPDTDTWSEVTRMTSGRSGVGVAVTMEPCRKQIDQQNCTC
UniProt Q007T0, sequence (whole entry, looked up): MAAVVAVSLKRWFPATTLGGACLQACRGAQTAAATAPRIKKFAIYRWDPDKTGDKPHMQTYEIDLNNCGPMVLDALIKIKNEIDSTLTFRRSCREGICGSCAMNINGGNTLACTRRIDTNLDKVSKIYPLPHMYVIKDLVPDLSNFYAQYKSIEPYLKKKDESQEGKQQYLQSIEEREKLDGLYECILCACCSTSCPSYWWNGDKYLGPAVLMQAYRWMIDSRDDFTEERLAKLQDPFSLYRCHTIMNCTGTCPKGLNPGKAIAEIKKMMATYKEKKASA
UniProt D0VWV4, sequence (whole entry, looked up): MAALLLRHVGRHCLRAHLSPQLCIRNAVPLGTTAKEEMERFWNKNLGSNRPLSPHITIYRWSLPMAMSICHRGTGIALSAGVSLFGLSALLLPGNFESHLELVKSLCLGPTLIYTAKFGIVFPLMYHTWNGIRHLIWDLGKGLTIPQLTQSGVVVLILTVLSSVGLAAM
UniProt Q9UM07, sequence (whole entry, looked up): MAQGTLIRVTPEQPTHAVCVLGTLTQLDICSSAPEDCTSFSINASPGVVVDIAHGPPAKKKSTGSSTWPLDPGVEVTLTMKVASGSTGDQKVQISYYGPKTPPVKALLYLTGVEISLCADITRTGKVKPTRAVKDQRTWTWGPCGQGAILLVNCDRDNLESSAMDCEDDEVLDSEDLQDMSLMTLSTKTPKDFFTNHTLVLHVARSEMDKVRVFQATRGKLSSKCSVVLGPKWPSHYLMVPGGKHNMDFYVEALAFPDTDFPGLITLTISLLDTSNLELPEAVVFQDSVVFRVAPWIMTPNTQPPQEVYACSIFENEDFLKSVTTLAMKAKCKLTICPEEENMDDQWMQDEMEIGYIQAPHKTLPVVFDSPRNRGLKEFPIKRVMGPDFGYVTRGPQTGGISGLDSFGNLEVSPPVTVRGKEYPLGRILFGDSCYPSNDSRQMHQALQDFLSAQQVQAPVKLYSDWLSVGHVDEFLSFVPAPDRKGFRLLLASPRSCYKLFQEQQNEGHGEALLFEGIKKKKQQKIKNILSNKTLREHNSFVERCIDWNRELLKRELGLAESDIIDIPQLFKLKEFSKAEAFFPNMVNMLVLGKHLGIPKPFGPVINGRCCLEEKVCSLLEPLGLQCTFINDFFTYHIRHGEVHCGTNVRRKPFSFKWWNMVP
UniProt P05771, sequence (whole entry, looked up): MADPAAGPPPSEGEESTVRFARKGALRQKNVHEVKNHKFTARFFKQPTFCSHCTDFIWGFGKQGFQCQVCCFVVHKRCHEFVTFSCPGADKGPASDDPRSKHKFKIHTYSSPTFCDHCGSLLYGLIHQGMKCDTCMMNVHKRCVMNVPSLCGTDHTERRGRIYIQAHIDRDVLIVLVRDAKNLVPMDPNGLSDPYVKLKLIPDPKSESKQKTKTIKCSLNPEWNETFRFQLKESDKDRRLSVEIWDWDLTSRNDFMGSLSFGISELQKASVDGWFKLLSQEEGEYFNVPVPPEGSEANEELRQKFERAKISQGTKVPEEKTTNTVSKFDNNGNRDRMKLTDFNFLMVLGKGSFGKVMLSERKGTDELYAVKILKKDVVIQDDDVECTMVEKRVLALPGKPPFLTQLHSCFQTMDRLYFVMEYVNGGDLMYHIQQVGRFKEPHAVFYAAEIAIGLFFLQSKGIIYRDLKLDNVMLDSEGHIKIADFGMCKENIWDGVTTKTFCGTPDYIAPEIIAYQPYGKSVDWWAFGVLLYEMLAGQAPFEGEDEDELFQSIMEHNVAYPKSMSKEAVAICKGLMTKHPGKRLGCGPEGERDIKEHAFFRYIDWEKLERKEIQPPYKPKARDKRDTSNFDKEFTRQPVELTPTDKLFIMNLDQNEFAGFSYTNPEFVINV
UniProt O94921, sequence (whole entry, looked up): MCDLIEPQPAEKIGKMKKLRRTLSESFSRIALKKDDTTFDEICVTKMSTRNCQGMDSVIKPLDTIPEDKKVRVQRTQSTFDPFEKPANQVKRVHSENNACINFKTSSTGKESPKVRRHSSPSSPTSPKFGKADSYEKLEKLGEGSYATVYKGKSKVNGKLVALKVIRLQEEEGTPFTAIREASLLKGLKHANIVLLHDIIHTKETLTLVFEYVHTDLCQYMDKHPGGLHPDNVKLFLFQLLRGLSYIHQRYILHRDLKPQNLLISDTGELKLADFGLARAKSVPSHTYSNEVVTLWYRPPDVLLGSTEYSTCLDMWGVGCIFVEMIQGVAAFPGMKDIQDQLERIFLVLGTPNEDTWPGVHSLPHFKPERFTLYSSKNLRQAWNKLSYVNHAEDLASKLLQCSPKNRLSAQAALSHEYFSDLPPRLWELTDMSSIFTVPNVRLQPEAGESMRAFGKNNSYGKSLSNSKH
UniProt Q9UPE1, sequence (whole entry, looked up): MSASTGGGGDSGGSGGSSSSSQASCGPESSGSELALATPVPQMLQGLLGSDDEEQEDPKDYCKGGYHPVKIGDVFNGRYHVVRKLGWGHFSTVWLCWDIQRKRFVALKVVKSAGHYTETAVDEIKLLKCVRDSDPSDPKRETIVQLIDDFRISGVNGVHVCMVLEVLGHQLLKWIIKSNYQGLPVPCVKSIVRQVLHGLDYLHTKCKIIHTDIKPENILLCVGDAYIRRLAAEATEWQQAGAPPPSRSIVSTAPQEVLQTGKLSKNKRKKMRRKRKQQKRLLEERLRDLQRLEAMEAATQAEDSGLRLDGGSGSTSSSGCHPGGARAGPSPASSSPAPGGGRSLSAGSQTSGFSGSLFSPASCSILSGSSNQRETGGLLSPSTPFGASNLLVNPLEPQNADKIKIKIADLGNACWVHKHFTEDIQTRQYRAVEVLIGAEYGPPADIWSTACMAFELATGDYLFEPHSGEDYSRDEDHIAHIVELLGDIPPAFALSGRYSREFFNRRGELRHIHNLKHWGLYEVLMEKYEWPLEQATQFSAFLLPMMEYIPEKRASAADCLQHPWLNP

| SMILES | target | assay | system | setting | scale | endpoint | value |
| --- | --- | --- | --- | --- | --- | --- | --- |
| CC(C)CC(O)(CC(C)C)c1cn(C(=O)N2CCCC2)nn1 | Lysosomal Pro-X carboxypeptidase (Mus musculus, UniProt Q7TMR0) | enzyme activity, inhibitor, item: Prcp | mouse, brain | i.p., 0.8 mg/kg, 4 h, protein level | baseline: vehicle | ratio of ratios | 1.5 |
| O=C1NC(=O)c2c1c1cc(F)c[n+]3c1c1c2c2cc(O)ccc2[n]1[Ru-4]312([N]=C=S)[S+]3CC[S+]1CC[S+]2CC3 (centres unmarked) | Casein kinase II subunit alpha (CSNK2A1, Homo sapiens, UniProt P68400) | enzyme activity |  | 100 nM, human enzyme, together with: 10 µM ATP | baseline: untreated | remaining activity | 112% |
| CC(C)[C@H]1NC(=O)C[C@H]2/C=C/CCSSC[C@@H](NC1=O)C(=O)N[C@H](Cc1cccc3ccccc13)C(=O)NCC(=O)O2 | Cyclin-dependent kinase 3, with cyclin E1 (CDK3, Homo sapiens, UniProt Q00526) | enzyme activity, inhibitor |  | 10 µM |  | inhibition | -2.1% |
| CCCC[C@H]1CNCCN1C[C@@H]1CCCN1C[C@H](CC1CCCCC1)N1CCN(CCc2ccc(Cl)c(Cl)c2)[C@H]([C@@H](C)O)C1 | Oprm1 | radioligand binding | rat brain membranes | 500 nM, pH 7.5, 25 °C, together with: 0.87 nM [3H]DAMGO |  | remaining binding | 106 ± 5.02% |
| CN1CCCN(C(=O)c2ccc(S(=O)(=O)F)cc2)c2ccccc21 | Uncharacterized hydrolase SAUSA300_2518 | enzyme activity, inhibitor, fluorogenic substrate |  | 0.05 µM |  | remaining activity | 110% and 109% |
| CCCCCCCCCCCCn1nnc(CC(=O)O)n1 | lasR | plasI-LVAgfp reporter, antagonist |  |  | baseline: pump-active over pump-mutant | IC50 ratio | 23 |
| N[C@H](C(=O)N1CCCC1)C1CCN(c2nccc3c(-c4ncc(Cl)cc4Cl)cccc23)CC1 | Protein-arginine deiminase type-4 (PADI4, Homo sapiens, UniProt Q9UM07) | thermal shift |  | 30 µM |  | melting temperature | 66.4 °C and 66.6 °C |
| OB(O)c1cnn(-c2cc(Cl)ncn2)c1 | Chymotrypsin-like elastase family member 1 (CELA1, Sus scrofa, UniProt P00772) | pNA substrate hydrolysis |  |  | baseline: Ki protease over Ki AmpC | selectivity ratio | 288000 |
| CCCCCCCC(=O)N[C@H]1CCSC1=O | sdiA |  |  |  |  | Emax | 120% |
| CN(C)[C@H]1C[C@@]23CC[C@@]4(O2)C(=CC[C@]2(C)[C@@H](c5ccc6ccncc6c5)CC[C@H]24)C=C3[C@@H](O)[C@@H]1O | Cyclin-dependent kinase 14 (CDK14, Homo sapiens, UniProt O94921) | ATP probe labelling, inhibitor, KiNativ profiling |  | 1 µM |  | inhibition | -3.2% |
| Cc1cc(O)cc(C)c1C[C@H](N)C(=O)N[C@H](CCCNC(=N)N)C(=O)N[C@@H](Cc1ccccc1)C(=O)N[C@@H](CCCCN)C(=O)NCCCCCCCCNC(=O)[C@H](Cc1ccccc1)NC(=O)[C@H](CC1CCCCC1)NC[C@@H]1Cc2ccccc2CN1C(=O)[C@@H](N)Cc1ccc(O)cc1 | Oprm1 | binding | rat brain membranes | together with: [3H]DAMGO | baseline: Ki mu over Ki delta | selectivity ratio | 3.92 |
| O=C(CC(=O)N[C@H]1CCOC1=O)Cc1ccccc1 | lasR | reporter gene, agonist | Escherichia coli JLD271 | 10 µM, pSC11 and pJN105L plasmids | baseline: OdDHL at same concentration | agonist activity | 2% |
| CCOC(=O)[C@@H]1Cc2c(cc([N+](=O)[O-])cc2[N+](=O)[O-])[C@H](O)[C@]12C(=O)Nc1ccc(Br)cc12 | SRSF protein kinase 3 (SRPK3, Homo sapiens, UniProt Q9UPE1) | binding, competition with immobilised ligand |  | 0.1 µM |  | remaining binding | 71% |
| O=C(O)c1cccc(CP(=O)(O)O)n1 | Metallo-beta-lactamase type 2 (blaNDM-1, Klebsiella pneumoniae, UniProt C7C422) | inhibitor |  | together with: nitrocefin |  | dissociation half-life | 9.5 ± 0.9 min |
| Cc1ccc(NC(=O)CCc2cccc(NC3=CC(=O)N(C4CCC(=O)NC4=O)C3=O)c2)cc1Cl (centres unmarked) | CRBN/Zinc finger protein Helios (Homo sapiens, UniProt Q96SW2+Q9UKS7) | degrader, quantitative proteomics, item: protein abundance | Jurkat | 1 µM, 4 h | baseline: DMSO | log2 fold change | -2.43 |
| O=C(CCCc1ccccc1)NC1CCOC1=O (centres unmarked) | lasR | reporter gene, agonist | Pseudomonas aeruginosa PAO-JP2 | 100 µM, plasI-LVAgfp reporter | baseline: OdDHL at same concentration | agonist activity | 0% |

| SMILES | target | assay | system | setting | scale | endpoint | value |
| --- | --- | --- | --- | --- | --- | --- | --- |
| [CH3][Ti+2][O]C(=O)c1ccc([S][Au][PH](c2ccccc2)(c2ccccc2)c2ccccc2)cc1.c1cc[cH-]c1.c1cc[cH-]c1 | Protein kinase C beta type, isoform beta-II (PRKCB, Homo sapiens, UniProt P05771) | kinase activity |  | 1 µM, together with: ATP 10 µM |  | remaining activity | 101% and 97.7% |
| CS(C)(=O)=Nc1ccc(-c2ccc(-c3nc4cc(O[C@@H]5CO[C@H]6[C@@H]5OC[C@H]6O)[nH]c4cc3F)cc2)cc1 | Serine/threonine-protein kinase NIM1 (NIM1K, Homo sapiens, UniProt Q8IY84) | enzyme activity, inhibitor |  | 10 µM |  | inhibition | 10% |
| O=C(Cc1cccc([N+](=O)[O-])c1)N[C@H]1CCSC1=O | sdiA |  |  |  |  | Emax | 126% |
| C[C@@H](NC(=O)[C@@H](N)Cc1ccc(O)cc1)C(=O)NCC(=O)N(C)[C@@H](Cc1ccccc1)C(=O)NCCO | human mu opioid receptor | β-arrestin-2 recruitment, agonist, cell-based |  |  |  | Emax | 102.7 ± 0.2% |
| COc1ccccc1-c1n[nH]c2nc(N[C@H]3CC[C@H](NS(=O)(=O)CC(C)C)CC3)ncc12 | cdc2-related kinase 12 (Leishmania donovani, UniProt A0A3S7WQK2) | affinity bead binding, bead competition pull-down | Leishmania donovani extract | analogue affinity beads |  | Hill slope | 2.5 |
| CCCCCCCCCC(=O)CC(=O)NC1CCCCC1=O (centres unmarked) | lasR | reporter gene, agonist | Pseudomonas aeruginosa PAO-JP2 | 100 µM, plasI-LVAgfp reporter | baseline: OdDHL at same concentration | agonist activity | 7% |
| CN(C)[C@H](CNC(=O)/C=C/c1cccc2ccccc12)Cc1ccc(O)cc1 | Mu-type opioid receptor, with GoB (OPRM1, Homo sapiens, UniProt P35372) | receptor activation, agonist |  |  |  | Emax | 85 ± 7% |
| CC[C@H](C)[C@H](NC(=O)CCNC(=S)Nc1ccc2c(c1)C(=O)OC21c2ccc(O)cc2Oc2cc(O)ccc21)C(=O)N[C@@H](CCC(N)=O)C(=O)N[C@@H](CC(=O)O)C(=O)N[C@@H](CC(C)C)C(=O)N[C@@H](CCCNC(=N)N)C(=O)N[C@@H](CCCNC(=N)N)C(=O)N[C@@H](CCCNC(=N)N)C(=O)N[C@@H](Cc1ccccc1)C(=O)N[C@@H](Cc1ccccc1)C(=O)N[C@@H](CC(C)C)C(=O)N[C@@H](Cc1c[nH]cn1)C(=O)N[C@@H](Cc1c[nH]cn1)C(=O)N[C@@H](CC(C)C)C(=O)N[C@H](C(=O)N[C@@H](C)C(=O)N[C@@H](CCC(=O)O)C(=O)N[C@H](CC(=O)N[C@@H](Cc1c[nH]cn1)C(=O)N[C@H](C(=O)N[C@@H](C)C(=O)N[C@H](CNC(=O)C[C@@H](N)Cc1ccc(O)cc1)C(N)=O)[C@@H](C)O)Cc1ccc2ccccc2c1)[C@@H](C)CC | Parathyroid hormone/parathyroid hormone-related peptide receptor, extracellular domain (PTH1R, Homo sapiens, UniProt Q03431) | fluorescence polarization | isolated ECD | concentration not given | baseline: native segment | relative binding affinity | ~3 fold |
| Oc1ccc(C[C@@H]2CN([C@@H](CC3CCCCC3)CN3CCC[C@H]3CN3CCNC[C@@H]3Cc3ccc4ccccc4c3)CCN2CCC23CC4CC(CC(C4)C2)C3)cc1 | Oprm1 | radioligand binding | rat brain membranes | 500 nM, pH 7.5, 25 °C, together with: 0.87 nM [3H]DAMGO |  | remaining binding | 109 ± 4.67% |
| CC(C)C[C@@H]1NC(=O)[C@H](C(C)C)NC(=O)[C@H](CCC(=O)O)NC(=O)CNC(=O)[C@H]([C@@H](C)O)NC(=O)[C@H](CCC(=O)O)NC(=O)[C@H](CCC(=O)O)NC(=O)[C@H](CC(=O)O)NC(=O)[C@H](C(C)C)NC(=O)[C@H]([C@@H](C)O)NC(=O)CNC(=O)[C@H](CC(=O)O)NC(=O)[C@@H]2CCCN2C1=O | KEAP1 | Keap1-Nrf2 binding, inhibitor, competitive FP |  | 6.25 µM, 30 min, together with: Nrf2 peptide probe | lower = stronger inhibition | fluorescence polarization | 0.0671 a.u. and 0.203 a.u. |
| COc1cc2c(cc1S(=O)(=O)F)C(=O)NCCC2 | Uncharacterized hydrolase SAUSA300_2518 | enzyme activity, inhibitor, fluorogenic substrate |  | 50 µM |  | remaining activity | 95.4% and 90.5% and 94.6% |
| CCCCCCC(=O)N[C@H]1CCSC1=O | sdiA |  |  |  |  | Emax | 97% |
| CON(C(=O)c1cn(C)nc1C(F)F)C(C)Cc1c(Cl)cc(Cl)cc1Cl (centres unmarked) | SDHD/SDHC/SDHB (Sus scrofa, UniProt A5GZW8+D0VWV4+Q007T0) | enzyme activity, inhibitor, DCIP reduction | pig | 0.6 µM, together with: DCIP 120 µM |  | reaction velocity | 0.0108 µM/s and 0.0107 µM/s |
| CC(C)C[C@@H](N)C(=O)NCC(=O)N[C@H](C)C(=O)N[C@H](CO)C(=O)N[C@H](Cc1c[nH]c2ccccc12)C(=O)N[C@H](Cc1c[nH]cn1)C(=O)N[C@H](CCCNC(=N)N)C(=O)N1CCC[C@@H]1C(=O)N[C@H](CC(=O)O)C(=O)N[C@H](CCCCN)C(=O)N[C@H](CCCCN)C(=O)N[C@H](CCCNC(=N)N)C(=O)NCCCCCC(=O)N[C@H](CCCCN)C(=O)N[C@H](CCCNC(=N)N)C(=O)N[C@H](CCCCN)C(=O)N[C@H](CCC(N)=O)C(=O)N[C@H](CCCNC(=N)N)C(=O)NCC(=O)N1CCC[C@@H]1C(=O)NCC(=O)N[C@H](CCCNC(=N)N)C(=O)N[C@H](C)C(=O)N[C@H](Cc1ccccc1)C(N)=O | C-X-C chemokine receptor type 4 (CXCR4, Homo sapiens, UniProt P61073) | chemotaxis, antagonist | SUP-T1 | 10 µM, together with: SDF-1alpha |  | cell migration | inhibited |
| CC(C)[C@@H]1NC(=O)[C@H](CC(N)=O)NC(=O)CNC(=O)[C@H](CC(N)=O)NC(=O)[C@H](C)NC(=O)[C@H](CC(=O)O)NC(=O)[C@H]([C@@H](C)O)NC(=O)[C@H](CCC(=O)O)NC(=O)CNC(=O)[C@H]([C@@H](C)O)NC(=O)[C@H](CCC(=O)O)NC(=O)[C@H](CCC(=O)O)NC(=O)[C@H](CC(=O)O)NC1=O | KEAP1 | Keap1-Nrf2 binding, inhibitor, competitive FP |  | 0.0015 µM, 30 min, together with: Nrf2 peptide probe | lower = stronger inhibition | fluorescence polarization | 1.04 a.u. and 1.09 a.u. |
| C#CCCCCOc1ccc2c(c1)CCCN2C(=O)CCl | V-type proton ATPase subunit B, brain isoform (Homo sapiens, UniProt P21281) | mass spectrometry profiling, item: ATP6V1B2 | H460 cell lysate | 100 µM over 10 µM, UniProt P21281 | baseline: high over low concentration | reactivity ratio | 1.42 |

For quick reference, copied from above:
| SMILES | target | assay | system | setting | scale | endpoint | value |
| --- | --- | --- | --- | --- | --- | --- | --- |
| OB(O)c1cnn(-c2cc(Cl)ncn2)c1 | Chymotrypsin-like elastase family member 1 (CELA1, Sus scrofa, UniProt P00772) | pNA substrate hydrolysis |  |  | baseline: Ki protease over Ki AmpC | selectivity ratio | 288000 |
| CCCCCCCC(=O)N[C@H]1CCSC1=O | sdiA |  |  |  |  | Emax | 120% |
| CN(C)[C@H]1C[C@@]23CC[C@@]4(O2)C(=CC[C@]2(C)[C@@H](c5ccc6ccncc6c5)CC[C@H]24)C=C3[C@@H](O)[C@@H]1O | Cyclin-dependent kinase 14 (CDK14, Homo sapiens, UniProt O94921) | ATP probe labelling, inhibitor, KiNativ profiling |  | 1 µM |  | inhibition | -3.2% |
| Cc1cc(O)cc(C)c1C[C@H](N)C(=O)N[C@H](CCCNC(=N)N)C(=O)N[C@@H](Cc1ccccc1)C(=O)N[C@@H](CCCCN)C(=O)NCCCCCCCCNC(=O)[C@H](Cc1ccccc1)NC(=O)[C@H](CC1CCCCC1)NC[C@@H]1Cc2ccccc2CN1C(=O)[C@@H](N)Cc1ccc(O)cc1 | Oprm1 | binding | rat brain membranes | together with: [3H]DAMGO | baseline: Ki mu over Ki delta | selectivity ratio | 3.92 |
